# Measurements pooled from the literature.
# Values joined by “and” are separate records of one study, mostly repeats; a detail may differ. ± gives the spread as reported.
# CASP10: Caspase-10 (CASP10, Homo sapiens, UniProt Q92851)
# UniProt Q92851, sequence (whole entry, looked up): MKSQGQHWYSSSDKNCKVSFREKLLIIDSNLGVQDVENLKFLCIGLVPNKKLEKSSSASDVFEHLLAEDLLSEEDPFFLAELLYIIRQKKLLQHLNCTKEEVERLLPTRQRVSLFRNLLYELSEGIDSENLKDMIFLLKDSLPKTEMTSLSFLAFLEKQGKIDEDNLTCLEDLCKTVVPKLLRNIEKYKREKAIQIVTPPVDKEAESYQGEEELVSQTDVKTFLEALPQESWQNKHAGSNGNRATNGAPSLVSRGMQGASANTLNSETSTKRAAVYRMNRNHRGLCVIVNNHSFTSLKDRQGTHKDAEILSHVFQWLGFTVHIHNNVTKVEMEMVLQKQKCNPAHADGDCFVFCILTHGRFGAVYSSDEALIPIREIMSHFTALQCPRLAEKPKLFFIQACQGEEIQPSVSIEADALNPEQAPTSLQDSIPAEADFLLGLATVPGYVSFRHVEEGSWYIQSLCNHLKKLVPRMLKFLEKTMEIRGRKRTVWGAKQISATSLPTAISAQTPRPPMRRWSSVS
# DCPS: m7GpppX diphosphatase (DCPS, Homo sapiens, UniProt Q96C86)
# UniProt Q96C86, sequence (whole entry, looked up): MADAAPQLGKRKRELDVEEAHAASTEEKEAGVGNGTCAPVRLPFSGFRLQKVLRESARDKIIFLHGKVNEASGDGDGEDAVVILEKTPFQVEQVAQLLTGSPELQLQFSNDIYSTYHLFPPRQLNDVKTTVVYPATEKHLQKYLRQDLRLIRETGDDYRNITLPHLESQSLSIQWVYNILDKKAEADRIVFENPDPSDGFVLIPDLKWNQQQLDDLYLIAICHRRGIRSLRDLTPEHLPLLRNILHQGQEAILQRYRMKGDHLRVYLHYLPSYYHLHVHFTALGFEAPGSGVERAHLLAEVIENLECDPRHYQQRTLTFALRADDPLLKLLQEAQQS
# T1: DNA (Homo sapiens); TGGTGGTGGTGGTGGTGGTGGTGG
# UniProt Q92633, sequence (whole entry, unmodified, looked up): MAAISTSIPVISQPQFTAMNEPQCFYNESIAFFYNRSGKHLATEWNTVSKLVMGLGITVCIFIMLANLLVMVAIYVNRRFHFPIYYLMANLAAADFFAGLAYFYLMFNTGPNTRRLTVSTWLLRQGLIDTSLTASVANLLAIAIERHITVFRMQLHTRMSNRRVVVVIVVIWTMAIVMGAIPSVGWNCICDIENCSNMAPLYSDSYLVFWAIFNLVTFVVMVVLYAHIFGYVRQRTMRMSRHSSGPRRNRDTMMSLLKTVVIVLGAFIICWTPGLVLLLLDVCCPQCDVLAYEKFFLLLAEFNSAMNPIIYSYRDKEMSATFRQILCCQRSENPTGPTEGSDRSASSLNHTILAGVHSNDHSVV
# UniProt P22061, sequence (whole entry, looked up): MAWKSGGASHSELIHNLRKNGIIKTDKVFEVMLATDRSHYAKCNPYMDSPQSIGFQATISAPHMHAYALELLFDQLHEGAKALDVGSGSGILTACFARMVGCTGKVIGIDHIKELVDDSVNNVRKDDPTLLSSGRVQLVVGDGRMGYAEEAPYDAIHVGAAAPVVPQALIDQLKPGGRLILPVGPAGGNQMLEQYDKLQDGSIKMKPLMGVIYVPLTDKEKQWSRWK
# UniProt Q13148, sequence (whole entry, looked up): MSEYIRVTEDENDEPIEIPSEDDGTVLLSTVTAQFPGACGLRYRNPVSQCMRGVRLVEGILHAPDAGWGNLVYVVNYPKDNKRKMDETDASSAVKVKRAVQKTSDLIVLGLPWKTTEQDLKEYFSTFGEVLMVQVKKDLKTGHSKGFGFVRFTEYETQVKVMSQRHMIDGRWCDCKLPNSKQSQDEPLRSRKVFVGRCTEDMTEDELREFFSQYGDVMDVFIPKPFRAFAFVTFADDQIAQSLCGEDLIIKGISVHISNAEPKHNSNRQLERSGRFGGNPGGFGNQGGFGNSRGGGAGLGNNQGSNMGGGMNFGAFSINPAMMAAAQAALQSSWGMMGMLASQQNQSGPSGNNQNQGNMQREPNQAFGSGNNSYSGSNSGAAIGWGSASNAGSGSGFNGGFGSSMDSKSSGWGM
# UniProt Q92830, sequence (whole entry, looked up): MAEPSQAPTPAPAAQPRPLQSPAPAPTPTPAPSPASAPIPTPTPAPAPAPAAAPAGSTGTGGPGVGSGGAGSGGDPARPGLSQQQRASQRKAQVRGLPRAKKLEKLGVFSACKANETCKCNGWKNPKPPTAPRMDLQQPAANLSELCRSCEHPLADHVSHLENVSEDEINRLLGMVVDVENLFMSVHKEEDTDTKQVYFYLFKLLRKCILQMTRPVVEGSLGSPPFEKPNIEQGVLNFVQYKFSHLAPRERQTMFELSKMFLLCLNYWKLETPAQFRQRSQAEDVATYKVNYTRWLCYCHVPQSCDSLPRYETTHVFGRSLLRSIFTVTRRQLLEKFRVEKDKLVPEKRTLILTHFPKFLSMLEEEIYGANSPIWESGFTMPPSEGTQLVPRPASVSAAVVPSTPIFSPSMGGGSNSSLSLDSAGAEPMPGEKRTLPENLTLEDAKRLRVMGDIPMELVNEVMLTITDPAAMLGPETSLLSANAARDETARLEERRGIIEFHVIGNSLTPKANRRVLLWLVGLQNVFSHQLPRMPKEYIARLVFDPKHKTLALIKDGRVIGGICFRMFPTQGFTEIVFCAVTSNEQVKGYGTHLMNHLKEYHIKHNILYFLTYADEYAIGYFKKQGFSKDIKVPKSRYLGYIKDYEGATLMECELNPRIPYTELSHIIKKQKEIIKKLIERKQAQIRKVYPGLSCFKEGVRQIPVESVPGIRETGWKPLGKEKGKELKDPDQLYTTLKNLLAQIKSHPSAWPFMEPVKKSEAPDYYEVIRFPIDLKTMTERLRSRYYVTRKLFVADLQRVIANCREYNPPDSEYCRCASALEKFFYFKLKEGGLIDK
# UniProt P45983, sequence (whole entry, looked up): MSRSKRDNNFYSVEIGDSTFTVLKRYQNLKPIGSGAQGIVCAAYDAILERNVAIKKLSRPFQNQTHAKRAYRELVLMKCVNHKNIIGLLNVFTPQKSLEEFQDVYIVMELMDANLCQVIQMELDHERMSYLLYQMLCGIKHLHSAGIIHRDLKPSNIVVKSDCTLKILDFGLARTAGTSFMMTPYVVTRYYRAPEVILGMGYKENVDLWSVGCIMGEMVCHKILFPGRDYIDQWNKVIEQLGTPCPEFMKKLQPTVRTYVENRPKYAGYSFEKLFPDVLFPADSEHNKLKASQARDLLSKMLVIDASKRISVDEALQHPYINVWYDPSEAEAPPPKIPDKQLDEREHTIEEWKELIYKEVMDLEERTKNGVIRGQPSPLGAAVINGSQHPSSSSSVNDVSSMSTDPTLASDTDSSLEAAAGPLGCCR
# UniProt P14060, sequence (whole entry, looked up): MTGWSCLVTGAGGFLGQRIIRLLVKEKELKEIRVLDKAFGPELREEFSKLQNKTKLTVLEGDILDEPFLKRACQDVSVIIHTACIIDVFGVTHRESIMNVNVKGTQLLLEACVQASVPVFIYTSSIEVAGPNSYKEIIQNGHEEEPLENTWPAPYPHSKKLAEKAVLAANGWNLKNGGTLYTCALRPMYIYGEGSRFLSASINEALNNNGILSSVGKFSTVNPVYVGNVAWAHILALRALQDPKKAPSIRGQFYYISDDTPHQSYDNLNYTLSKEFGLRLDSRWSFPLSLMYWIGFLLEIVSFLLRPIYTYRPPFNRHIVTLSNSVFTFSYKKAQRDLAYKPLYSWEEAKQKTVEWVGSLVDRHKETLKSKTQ
SMILES,target or system,assay,test system,conditions,how to read,endpoint,result
O=C1Nc2ccc3ccc(nc3n2)CNCc2ccc3ccc(nc3n2)NC(=O)OCCCNCCCO1,"T1, DNA (Homo sapiens)",SPR,,,,binding,binds
CCN(CC)C(CO)c1cccc2c(C)c(C)oc12 (stereo not drawn),"Lysophosphatidic acid receptor 1 (LPAR1, Homo sapiens, UniProt Q92633, W271F)","G-protein dissociation, agonist, NanoBiT",HEK-293T,"100 pM, W271F mutant",reference: baseline luminescence,fold change,0.972 and 0.988 and 0.997 and 0.986 and 0.896
C=CS(=O)(=O)c1ccc(Nc2nc(OCC3CCCCC3)c3nc[nH]c3n2)cc1,"Gasdermin-D (GSDMD, Homo sapiens, UniProt P57764)","thermal stability, DSF",,20 µM,,ΔTm,9 °C
CC(=O)N[C@@H](CC(=O)O)C(=O)N[C@@H](C)C(=O)N[C@@H](Cc1ccc(N)cc1)C(=O)N[C@@H](CC(=O)O)C(=O)COC(=O)c1c(C)cccc1C,CASP10,"enzyme activity, inhibitor",,,,kinact/KI,46000 M⁻¹ s⁻¹
N#CN1CC[C@H](C(=O)Nc2nc3c(s2)CN(C(=O)Cn2cc(COCCOCCOCCOCCNC(=O)CCCC[C@@H]4SC[C@@H]5NC(=O)N[C@@H]54)nn2)CC3)C1,"Protein-L-isoaspartate(D-aspartate) O-methyltransferase (PCMT1, Homo sapiens, UniProt P22061)","probe binding, affinity probe, neutravidin pull-down LC-MS/MS","HEK293T, cell lysate","5 µM, 1 h, single replicate, unit not given",higher = more pulled down,iBAQ abundance,1.12e+08 and 2.6e+08 and 4.99e+08
C[n+]1cn(C2OC(COP(=O)(O)OP(=O)([O-])C(Cl)(Cl)P(=O)(O)OP(=O)(O)OCC3OC(n4cnc5c(=O)[nH]c(N)nc54)C(O)C3O)C(O)C2O)c2nc(N)nc(O)c21 (stereo not drawn),DCPS,"substrate, HPLC",,"concentration not given, 15 min",,hydrolysis,0%
Fc1ccc(Nc2nc(NC3CCCCC3)c3ccccc3n2)cc1F,"Beta-2 adrenergic receptor (ADRB2, Homo sapiens, UniProt P07550, I153L)","β-arrestin2 recruitment, antagonist, BRET",,mutant I153L,reference: isoprenaline maximal response,maximal inhibition,6.8%
CC(=O)N[C@@H](CCC(N)=O)C(=O)N[C@@H](CC(C)C)C(=O)N[C@@H](CCCC(=O)O)C(=O)N1CCC[C@H]1C(=O)N[C@@H](CC(=O)O)C(=O)COC(=O)c1c(C)cccc1C,CASP10,"enzyme activity, inhibitor",,,,kinact/KI,194000 M⁻¹ s⁻¹
CC[C@H](C)[C@H](NC(=O)[C@@H](NC(=O)[C@H](CCCCN)NC(=O)[C@@H](N)[C@@H](C)O)C(C)C)C(=O)N[C@@H](CC(C)C)C(=O)N[C@@H](Cc1c[nH]cn1)C(N)=O,"Microtubule-associated protein tau (MAPT, Homo sapiens, UniProt P10636)","fibril formation, ThT fluorescence",,"5-fold of tau, at plateau, with: wild-type tau 10 µM, heparin",reference: untreated,ThT fluorescence,80 ± 8%
CCCCCC(O)/C=C/C=O (stereo not drawn),"Enoyl-CoA delta isomerase 2 (ECI2, Homo sapiens, UniProt O75521)","competitive isoTOP-ABPP, refers to: PECI cysteine peptide","proteome, soluble, MDA-MB-231","100 µM, with: iodoacetamide probe","reference: DMSO over compound-treated, higher = stronger cysteine blockade",isoTOP-ABPP competition ratio,1.7
CC(C=CC=C(C)C=CC1=C(C)CCCC1(C)C)=CC=O,"Rhodopsin (RHO, Homo sapiens, UniProt P08100, E181K)","immunostaining, refers to: opsin",COS-7 transfected,"10.00 µM, unit not given",reference: surface over total stained cells,plasma membrane localization,0.69
CC(=O)N1c2ccc(-c3ccc(CNC(=O)c4cn5cc(-c6cnc(N)nc6)nc(N6CCOCC6)c5n4)cc3)cc2CC[C@@H]1C,"Histone acetyltransferase KAT2A (KAT2A, Homo sapiens, UniProt Q92830)","binding, competition with immobilised ligand",,10 µM,,remaining binding,84%
CC[C@H](C)[C@H](NC(=O)[C@@H](NC(=O)[C@H](CCCCN)NC(=O)[C@@H](NC(=O)CNC(=O)[C@@H](N)CCCNC(=N)N)[C@@H](C)O)C(C)C)C(=O)N[C@@H](CC(C)C)C(=O)N[C@@H](Cc1c[nH]cn1)C(=O)N[C@@H](CC(C)C)C(N)=O,"Microtubule-associated protein tau, PHF6* peptide (MAPT, Homo sapiens, UniProt P10636)","fibril formation, ThT fluorescence",,"5-fold of peptide, 240 min, pH 7.4, with: Ac-PHF6* 25 µM, heparin",reference: untreated,ThT fluorescence,2 ± 1%
CC(=O)N[C@H](C(=O)N[C@@H](CCCCN)C(=O)N[C@@H](CCC(N)=O)C(=O)N[C@@H](CC(=O)O)C(=O)COC(=O)c1c(C)cccc1C)C(C)C,CASP10,"enzyme activity, inhibitor",,,,kinact/KI,55000 M⁻¹ s⁻¹
O=c1c(-c2ccc(Cl)c(CN3CCCCC3)c2)coc2cc(O)ccc12,"3 beta-hydroxysteroid dehydrogenase/Delta 5-->4-isomerase type 1 (HSD3B1, Homo sapiens, UniProt P14060)",[3H]-DHEA conversion,LNCaP,"0.1 µM, normalized to protein, unit not given",reference: vehicle,DHEA metabolism,1.97
C#CCOC(=O)[C@]1(C)C=C(C(=O)OC(C)(C)C)C(=O)CC1,"Mitogen-activated protein kinase 8 (MAPK8, Homo sapiens, UniProt P45983)","enzyme activity, D-SENSOR",,"133.3 µM, mean of replicates",,normalized kinase activity,0.282
CC[C@H](C)[C@H](NC(C)=O)C(=O)N[C@@H](CCC(=O)O)C(=O)N[C@H](C(=O)N[C@@H](CC(=O)O)C(=O)COC(=O)c1c(C)cccc1C)[C@@H](C)O,CASP10,"enzyme activity, inhibitor",,,,kinact/KI,255000 M⁻¹ s⁻¹
COc1ccc(NC(=O)Nc2ccc3c(c2)C(=O)N(C(C)CO)CC(C)C(CN(C)Cc2ccc4c(c2)OCO4)O3)cc1 (stereo not drawn),"Insulin receptor (INSR, Homo sapiens, UniProt P06213)","binding, competition with immobilised ligand",,10 µM,,remaining binding,36%
CC(=O)N[C@@H](CC(=O)O)C(=O)N[C@@H](CO)C(=O)N[C@H](C(=O)N[C@@H](CC(=O)O)C(=O)COC(=O)c1c(C)cccc1C)C(C)C,CASP10,"enzyme activity, inhibitor",,,,kinact/KI,58400 M⁻¹ s⁻¹
O=C(c1ccc(C(=O)N2CCC(N3CCCCC3)CC2)cc1)N1CCC(N2CCCCC2)CC1,"Lethal(3)malignant brain tumor-like protein 3 (Homo sapiens, UniProt Q96JM7)",FRAP,human cells,1 µM,,diffusion coefficient,0.0357 µm2/s
O=C(NO)c1ccc(Cn2c3c(c4cc(Br)ccc42)SC(c2ccccc2)C3)s1 (racemic),"Histone deacetylase 8 (Schistosoma mansoni, UniProt A5H660)",X-ray crystallography,,"ligand-Lys20 side chain, C2-CE",,interatomic distance,3.86 Å
O=C1c2sc(-c3ccc(N4CCC(F)C4)nc3F)nc2CCN1c1cccnc1 (stereo not drawn),"TAR DNA-binding protein 43, aggregated (TARDBP, Homo sapiens, UniProt Q13148)",saturation autoradiography,"human, FTLD-TDP type A brain sections",4.77 nM,,specific binding,62.4 nM
CC(=O)N[C@@H](CC(=O)O)C(=O)N[C@@H](Cc1ccc(I)cc1)C(=O)N[C@@H](C)C(=O)N[C@@H](CC(=O)O)C(=O)COC(=O)c1c(C)cccc1C,CASP10,"enzyme activity, inhibitor",,,,kinact/KI,246000 M⁻¹ s⁻¹
C[Si]1(C[C@H](CN)CC(=O)O)CCCC1,"Equilibrative nucleoside transporter 1 (SLC29A1, Homo sapiens, UniProt Q99808)","binding, radioligand binding",,"70 µM, with: [3H]nitrobenzylthioinosine",,inhibition,-10%
Cc1ncsc1-c1ccc(C(C)NC(=O)C2CC(O)CN2C(=O)C(NC(=O)CCCCCCCCCCN2CCCC(Nc3ncc(Cl)c(Nc4ccccc4S(=O)(=O)C(C)C)n3)C2)C(C)(C)C)cc1 (stereo not drawn),22Rv1,"RNA-seq, refers to: MBTD1 mRNA",,concentration not given,reference: DMSO,log2 fold change,-1.45
CC(C)[C@@H]1NC(=O)[C@H](Cc2ccccc2)NC(=O)CSC[C@@H](C(N)=O)NC(=O)[C@H](CCC(=O)O)NC(=O)[C@H](CO)NC(=O)[C@H](Cc2c[nH]c3cccc(Cl)c23)NC(=O)[C@H](C2CCCCC2)NC(=O)[C@H](C(C)C)NC(=O)[C@H](Cc2ccc(O)cc2)NC(=O)[C@H](CC(=O)O)NC(=O)[C@H](Cc2c[nH]c3ccccc23)NC(=O)[C@H](Cc2ccc(N)nc2)NC(=O)[C@H](Cc2c[nH]c3ccc(Cl)cc23)NC(=O)[C@H](CCC(=O)O)NC1=O,"Interleukin-1 receptor-like 2 (IL1RL2, Homo sapiens, UniProt Q9HB29)","reporter gene (SEAP), inhibitor, HEK-Blue IL-36R reporter",HEK-Blue IL-36R cells,"0.046 µM, 6 h, with: IL-36γ 0.01 ng/mL",,remaining activity,28.3%
C[n+]1cn(C2OC(COP(=O)(O)OP(=O)([O-])C(Cl)(Cl)P(=O)(O)O)C(O)C2O)c2nc(N)nc(O)c21 (stereo not drawn),DCPS,"substrate, HPLC",,"concentration not given, 30 min",,hydrolysis,0.7%
COC1CN([C@H]2CC[C@H]([C@@]3(C)Oc4c(Cl)cc(C(=O)NCc5c(SC)cc(C)[nH]c5=O)c(C)c4O3)CC2)C1,,"RNA-seq, refers to: JUP","human cancer patients, whole blood","dose not given, 24 h, PRC2 target gene",reference: pretreatment sample,log2 fold change,1.41
Cc1cnc2nc1Nc1cccc(c1)COC/C=C/COCc1cc(ccc1OCCN1CCOCC1)N2,"Epidermal growth factor receptor (EGFR, Homo sapiens, UniProt P00533)",,,concentration not given,,percent of control,77%
Cc1cc(=O)oc2c(F)c(OP(=O)(O)O)c(F)cc12,"Tyrosine-protein phosphatase non-receptor type 11 (PTPN11, Homo sapiens, UniProt Q06124)","dephosphorylation, substrate",,,,kcat,157 ± 4 s⁻¹
